Published values collected from several papers.
Each numbered part is a random draw from the data of one study; scales do not carry over between parts. Positions count from the first letter of the parent shown.

Series 1 — technique: RNA Bind-n-Seq; form: RNA; matrix: in vitro; tested at: 100 nM; baseline: input RNA pool; reading: higher = stronger binding; quantity: bound/input enrichment
Target: RING finger protein unkempt homolog, zinc fingers 1-6, SBP tag (UNK, Homo sapiens, UniProt Q9C0B0, residues 30-357)
Chain of UniProt Q9C0B0 (30-357, looked up): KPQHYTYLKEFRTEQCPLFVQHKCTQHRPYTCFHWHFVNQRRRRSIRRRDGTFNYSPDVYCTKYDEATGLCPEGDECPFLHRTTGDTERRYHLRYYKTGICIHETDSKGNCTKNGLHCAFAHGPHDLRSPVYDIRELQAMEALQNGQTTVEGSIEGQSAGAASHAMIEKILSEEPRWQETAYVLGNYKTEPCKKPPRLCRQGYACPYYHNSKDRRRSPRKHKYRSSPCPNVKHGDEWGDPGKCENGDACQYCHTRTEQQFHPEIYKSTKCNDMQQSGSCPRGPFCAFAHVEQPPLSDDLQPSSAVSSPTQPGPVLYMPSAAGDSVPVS
Notes: RNA with constant flanks, vertebrate orthologous sites, ends assumed
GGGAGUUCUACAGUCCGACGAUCUUGCCUACAAUAAGGAAACCUACAGGAAGUUUUUUAUUUUUCAUUUUCCCCUUAGGCAUAGUUAGUCUUUUUCUCCCCAGGCAGAUCAUUCUGAGUGUGCAAGUGUGUGUGCACAUGUUACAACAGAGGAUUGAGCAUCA: 0.844 ratio
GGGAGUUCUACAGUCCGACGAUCUGAAGAUGGUGGUUGUACAUUAUUUCAUUUAGAAAAUAUAAAACUUCAUUUUGUUUAAGCUAGGUGUUAAACUGGAAUAGCUAUUCUACCCUAGAGAAUGGGGCAGCUGUGCCCUUCCCUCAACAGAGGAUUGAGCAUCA: 1.47 ratio
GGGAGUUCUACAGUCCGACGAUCCUGGCCAAACGUUUUUUUACUUGUAUUACUUUGUCCUUAUUUUUUUUCCUGGUAGUUAGUUUCCGUUGUUACCCACACCAUUUUUAUGUCACCUUCACUGAAGAAGGGCUAGAGUUUAACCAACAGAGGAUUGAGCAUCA: 2.28 ratio
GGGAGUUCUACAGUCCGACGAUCCAAUUCAAUGGUCGAGGGUUCAGAACUCAAAAAGGUUCGCUCCAACUCCAGAAUUUACCAUAGGUAUUUUUUACUGGACGCCGACAUGCAGAGCCUGAGGUGGGAACCAUCUAAGAAGGACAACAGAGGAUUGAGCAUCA: 0.0938 ratio
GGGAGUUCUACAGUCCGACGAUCACGGCAGGUCUAGGACCUGCUGCUCAGAGUAGCAUACGAGCCGCUUCAGCCCGGCCAUUUUGGCUCCGUUUUUUAACAGUGCCCUUAUUAUCCUGUAUAUAUGCCUGAGAUUUGGAAAUACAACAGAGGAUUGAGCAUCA: 0.385 ratio
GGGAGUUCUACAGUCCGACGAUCUUACAAUCUUCUUAAACUGGUAUUUACGGACCAUAUGGAGCUUUUUUUUUUUUUUUACAGUUUAGCAUCUGGUUUCUACAUGGAAGACGACGAACUUUCAUGCUUUAUUGUUCAAUGUGGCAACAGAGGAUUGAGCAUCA: 0.65 ratio
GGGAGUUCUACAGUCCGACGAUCGUCUGCCCCUAAGUGCACGAGCAUCUGUGCUAACUCUAGAGCUCAUCAUGCGUUUCAUCAUAUUUACACACCAGUUCCCUAAGAACAGCAGUAUAGAUUCAAAGGGACGCCGAUGCUUCCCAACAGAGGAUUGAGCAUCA: 0.343 ratio
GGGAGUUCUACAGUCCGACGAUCUCAUUGUACUGCAAAAAUCAUCCUCGUUUUAAAUUAGCCACAGUGAUAACUAGUCUGCACUAGUAGAAUCAUUUACCUUUUAAAUUAUCUGCUUUGUCUGAUACCUGAAACACAUCAAAACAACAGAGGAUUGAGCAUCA: 0.655 ratio

Series 2 — technique: protein binding microarray; form: double-stranded DNA, one strand shown; matrix: in vitro; tested at: not given; baseline: not given; reading: higher = stronger binding; quantity: E-score
Target: Histone acetyltransferase KAT6A, winged helix 2, GST fusion (KAT6A, Homo sapiens, UniProt Q92794, residues 85-181)
Notes: 8-mer, flanks averaged, mean of 2 arrays, mostly near background
Residues (chain): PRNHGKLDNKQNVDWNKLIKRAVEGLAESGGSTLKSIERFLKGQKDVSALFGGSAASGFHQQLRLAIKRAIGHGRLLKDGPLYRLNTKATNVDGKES
CATTACGC: -0.0584
CTGACAGA: -0.00987
CCGACCCA: 0.205
AGCATTCC: -0.0174
GCCAGTTA: -0.0459
AACGGTCG: 0.0681
GCGTGGCC: 0.129
CCTAGGCC: -0.0182
CCTATGAC: -0.279
GCATGTAA: -0.191
ACCACTAA: 0.0683
ATAAATTG: 0.148
AGACACAT: -0.235
ATAGACTA: -0.0271
GCATCCAC: 0.129
CCCATTGA: -0.155
AGGGAGCC: -0.0283
AAGAGTTC: -0.2

Series 3 — technique: RNA Bind-n-Seq; form: RNA; matrix: in vitro; tested at: 365 nM; baseline: no-protein control; reading: higher = stronger binding; quantity: RBNS enrichment (R)
Target: RNA binding protein fox-1 homolog 2, RRM domain, GST-SBP tag (RBFOX2, Homo sapiens, UniProt O43251-10, residues 100-194)
Notes: natural RNA segment, single round, ends assumed
Construct (chain): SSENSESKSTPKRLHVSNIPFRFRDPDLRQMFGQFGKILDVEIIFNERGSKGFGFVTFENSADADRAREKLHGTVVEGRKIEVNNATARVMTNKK
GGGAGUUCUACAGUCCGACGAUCUUGCCACCCUCAUAGCUUUCCCACAUCUUGUAGGUGCCAUAUACAAUGCCUUAAUGUAAUUAGCCUCAGUUUGAGGACACCAUACAAGACGUGGGACACCAUUCAAUUGAUGGAAUUCUCGGGUGCCAA: 0.413
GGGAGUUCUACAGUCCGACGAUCAGAACUGGCCACCCAUCUGUCAGGCUCUUCCUUGGAAACGAAGAGCAGAGGUGGUCUCUAGGGGGAGGCUGGUGCCAUUCCCUCCUGCCUGGCUCAGACCUCUUAGACUGUGGAAUUCUCGGGUGCCAA: 0.326
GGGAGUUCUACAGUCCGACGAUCUGGGUCUUAGGCCUCCUUCCCUCCUCAGUGUCUUUCAAAUGACUUUCAUCAAAUGACUUUCAAAAUAAACCUUAUUUUGGCAAAGGCAUUUGUUGAGACUUAUUUUUUGGUGGAAUUCUCGGGUGCCAA: 0.363
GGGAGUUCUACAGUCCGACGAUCGACGUUAAAAUAAUGAUUUGAUUUCCUGCCCUGGUUUGAAGGUCCAUUUUAUUCCUUUGCACUCAUUCACUGUUUCUCCUUUUAAAAUCCCUAAAAAUAUUUCCACCGUCUGGAAUUCUCGGGUGCCAA: 0.463
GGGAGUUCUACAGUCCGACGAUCCAUUUCCAUUUCUAAGCAGUUGAAUGACACAGUCAGAUUCUUUGGUGUAUGCUUUGUUCUUUCCAUCUCAAGCAUUUAUCCAAAUUCUGCUCACAGACAUGAGGAAGCAGUGGAAUUCUCGGGUGCCAA: 0.385
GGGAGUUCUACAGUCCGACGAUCAUGGGAUUCCAUGCCACCCAAGCUGUCAAAACUGCCACUAAGUCGACGAUGGUGGCUCUCAUACUGACCCAGCCCCACAUGUAUAGCAGUGAACAGCAGGGCUAGGCAAGUGGAAUUCUCGGGUGCCAA: 0.4
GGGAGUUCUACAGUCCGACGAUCAAAACCUGUGCCCUCAGCCACUUCGAAUGCCAGCCACCUUCUGGUUCUAAAACGGGGAGUGGUCUGAAUGAACACAGCUGACCCCUUUCCCGCGCACUGAAAGGGCAGAGUGGAAUUCUCGGGUGCCAA: 0.443
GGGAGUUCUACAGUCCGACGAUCUUCCUCUAGAAAUCCCAGCAGAAUCUGUUGCCUCCCCCAACCCCUAACUUUGCCACUUCAAGCCUCAAGACAGAUUCAUGUAGCAGUUCCUCAAAACCCCCUGGAGGGGCUGGAAUUCUCGGGUGCCAA: 0.792

Series 4 — target: CCND1, cyclin fold, Cln2 fusion (human); technique: yeast growth competition, sequencing; matrix: yeast; notes: weak parent motif; baseline: not given; reading: higher = stronger binding; quantity: normalised enrichment score
Starting sequence: SLBP docking peptide (human); ARYKRKLLINDFG
Y3C: -0.216
L7R: -0.409
G13A: -0.397
D11C: 0.396
I9L: 0.0691
Y3E: 0.32
I9G: 0.0386
R5K: 0.291
Y3N: -0.129
D11I: 0.492
D11Q: -0.000974
G13T: -0.174
L8V: 0.342
